Results gathered from unrelated publications.
Numbered parts are unrelated; each lists some results of a single study. Substitutions count along the parent as printed.

Series 1 — target: CCND3, cyclin fold, Cln2 fusion (human); method: yeast growth competition, sequencing; matrix: yeast; setting: weak parent motif; relative to: not given; direction: higher = stronger binding
Parent: viral docking peptide; KGVKRKLFAEDSS; partner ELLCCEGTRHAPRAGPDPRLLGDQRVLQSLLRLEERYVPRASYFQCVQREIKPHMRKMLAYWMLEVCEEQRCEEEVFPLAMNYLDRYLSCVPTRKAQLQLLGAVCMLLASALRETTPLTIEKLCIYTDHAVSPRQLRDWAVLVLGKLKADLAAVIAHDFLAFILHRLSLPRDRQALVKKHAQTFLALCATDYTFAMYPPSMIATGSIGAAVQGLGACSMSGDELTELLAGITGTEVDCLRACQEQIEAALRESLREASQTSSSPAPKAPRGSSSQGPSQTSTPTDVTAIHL
Substitution | normalised enrichment score
K4P | -0.0806
L7Y | 0.147
A9F | -0.0822
K6L | 0.151

Series 2 — method: protein-binding microarray; form: hairpin DNA; matrix: in vitro; concentration: not given; relative to: not given; direction: higher = stronger binding; constant ends, left off below: GAGGCCTT … AAGGCCTCACACTCTTTCCCTACACG
Target: Signal transducer and activator of transcription 1-alpha/beta, full length (STAT1, Homo sapiens, UniProt P42224, residues 1-750)
UniProt P42224, sequence (whole entry, looked up): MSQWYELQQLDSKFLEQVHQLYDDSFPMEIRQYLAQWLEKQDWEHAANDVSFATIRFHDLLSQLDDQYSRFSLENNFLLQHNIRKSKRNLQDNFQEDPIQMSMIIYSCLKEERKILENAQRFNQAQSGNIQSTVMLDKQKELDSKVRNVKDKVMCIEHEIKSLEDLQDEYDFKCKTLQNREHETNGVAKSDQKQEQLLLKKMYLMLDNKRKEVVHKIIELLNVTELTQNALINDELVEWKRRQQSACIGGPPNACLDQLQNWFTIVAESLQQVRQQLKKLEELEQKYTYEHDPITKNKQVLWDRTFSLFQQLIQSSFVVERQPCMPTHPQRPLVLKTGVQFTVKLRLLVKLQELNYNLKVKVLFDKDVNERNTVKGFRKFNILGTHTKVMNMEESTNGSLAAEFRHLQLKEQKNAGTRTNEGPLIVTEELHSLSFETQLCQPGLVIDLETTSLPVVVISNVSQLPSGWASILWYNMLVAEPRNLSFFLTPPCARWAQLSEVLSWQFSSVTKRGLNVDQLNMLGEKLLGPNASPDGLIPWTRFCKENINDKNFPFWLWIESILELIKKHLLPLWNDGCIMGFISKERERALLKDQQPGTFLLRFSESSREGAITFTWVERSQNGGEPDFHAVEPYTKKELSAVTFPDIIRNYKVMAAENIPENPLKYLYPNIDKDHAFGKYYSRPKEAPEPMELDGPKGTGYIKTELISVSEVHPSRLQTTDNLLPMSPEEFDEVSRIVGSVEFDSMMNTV
Setting: whole hairpin DNA, median over replicate spots
Oligonucleotide | median fluorescence
TCCCGGAAGCCTCCTGGCTTCCGGGA | 16100 a.u.
TCCCCGAAGCCTCCTGGCTTCGGGGA | 4030 a.u.
TCCCTGAAGCCTCCTGGCTTCAGGGA (5mC at 12) | 1060 a.u.
CTCCGGAAGCCTCCTGGCTTCCGGAG (5mC at 9) | 1270 a.u.
TCCCGGCCGCCTCCTGGCGGCCGGGA (5mC at 15) | 912 a.u.
TCCCGGCGGCCTCCTGGCCGCCGGGA (5mC at 27) | 1950 a.u.
TCCCCCAAGCCTCCTGGCTTGGGGGA | 914 a.u.
TCCCGGAAGCCTCCTGGCTTCCGGGA (5mC at 12) | 3960 a.u.

Series 3 — method: RNA Bind-n-Seq; form: RNA; matrix: in vitro; concentration: 15 pmol; setting: 4-mer, random 30-nt RNA, single round; added: DMSO vehicle, 2 mM AMP-PNP; relative to: input library; direction: higher = stronger binding
Target: Eukaryotic initiation factor 4A-I (EIF4A1, Homo sapiens, UniProt P60842, residues 1-406, full length assumed)
UniProt P60842, sequence (whole entry, looked up): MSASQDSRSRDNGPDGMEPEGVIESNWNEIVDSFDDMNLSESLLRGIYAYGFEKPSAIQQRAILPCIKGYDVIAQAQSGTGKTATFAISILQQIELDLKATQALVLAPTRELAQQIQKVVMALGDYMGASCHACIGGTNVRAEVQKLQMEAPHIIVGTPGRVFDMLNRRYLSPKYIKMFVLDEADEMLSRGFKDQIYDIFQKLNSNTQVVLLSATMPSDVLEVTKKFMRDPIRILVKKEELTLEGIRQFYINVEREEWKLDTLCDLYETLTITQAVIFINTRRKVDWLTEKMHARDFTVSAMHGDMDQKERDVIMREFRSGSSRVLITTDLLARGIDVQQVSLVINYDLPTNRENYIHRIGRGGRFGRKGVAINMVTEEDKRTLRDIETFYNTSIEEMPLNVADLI
Oligonucleotide | 4-mer enrichment
GACG | 1.46 fold
CAGU | 0.965 fold
GAAG | 1.21 fold
AGGG | 1.14 fold
CACU | 1.11 fold
GAUA | 1.09 fold
CCAG | 1.57 fold
UCCG | 0.837 fold

Series 4 — observed: peptide-MHC binding; form: peptide; concentration: concentration not given
Target: HLA class I histocompatibility antigen, A alpha chain, allele A*25:01 (Homo sapiens, UniProt P04439)
Sequence | binding
VILNYIPVL | inactive
MVRVLTVIKEY | inactive
FMDPGIFPR | inactive
SAYYLDIGF | inactive

Some of these lines once more (series 2):
Oligonucleotide | median fluorescence
TCCCTGAAGCCTCCTGGCTTCAGGGA (5mC at 12) | 1060 a.u.
CTCCGGAAGCCTCCTGGCTTCCGGAG (5mC at 9) | 1270 a.u.
TCCCGGCCGCCTCCTGGCGGCCGGGA (5mC at 15) | 912 a.u.
TCCCGGCGGCCTCCTGGCCGCCGGGA (5mC at 27) | 1950 a.u.
